# Experimental data pooled from the literature.
# Numbered parts are unrelated; each lists some results of a single study. Positions count from the first letter of the parent shown.

# Study 1
# Target: OGT, full length, His-tagged (human)
# Technique: phage display, sequencing
# Matrix: in vitro
# Concentration: 1 µg OGT
# Notes: single substitutions, 15-mer displayed peptide, unchanged parent 19.6
# Relative to: input library
# Direction: higher = stronger binding
# Starting sequence: peptide; TAPFYPPAYQIQVFK
Change,fold enrichment
F4W,20.9 fold
Y9I,3.9 fold
F4V,11.2 fold
Y9M,1.57 fold
Y5H,1.04 fold
P6Y,3.78 fold
Q12W,6.05 fold
T1W,19.7 fold
K15N,7.59 fold
F14Q,20.1 fold
F4D,4.72 fold
Y9W,0.641 fold
T1R,15.9 fold
K15M,7.81 fold
Y5K,1.99 fold
P3V,20 fold

# Study 2
# Target: Histone acetyltransferase KAT6A, both winged helices, GST fusion (KAT6A, Homo sapiens, UniProt Q92794, residues 1-181)
# Technique: protein binding microarray
# Form: double-stranded DNA, one strand shown
# Matrix: in vitro
# Concentration: not given
# Notes: 8-mer, flanks averaged, mean of 2 arrays, mostly near background
# Relative to: not given
# Direction: higher = stronger binding
# Construct (chain): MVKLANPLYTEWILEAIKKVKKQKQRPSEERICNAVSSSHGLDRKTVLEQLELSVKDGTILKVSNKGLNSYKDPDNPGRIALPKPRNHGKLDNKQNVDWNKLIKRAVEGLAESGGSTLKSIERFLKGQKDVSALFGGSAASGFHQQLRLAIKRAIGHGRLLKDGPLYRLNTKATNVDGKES
Oligonucleotide,E-score
CATTAGTA,-0.073
AAGCCTTA,-0.0206
CCCGAGGG,-0.0862
AGAGAAAG,-0.295
AGAAATAC,-0.142
GTACCGAA,-0.042
CTTTGTGC,-0.0523
CACAATGC,0.0649
ATGAGCTA,-0.0314
ATCGTTGC,-0.0596
AACCTCTG,-0.00128
CGGCAGCA,0.173
AAAACGAA,-0.0918
TGTCCAAA,-0.0522
CTCGGCCA,0.067
CACGAGAC,0.00783
CATCCGCG,0.262
ACTAGGCA,-0.132

# Study 3
# Target: RNA binding protein fox-1 homolog 2, RRM domain, GST-SBP tag (RBFOX2, Homo sapiens, UniProt O43251-10, residues 100-194)
# Technique: RNA Bind-n-Seq
# Form: RNA
# Matrix: in vitro
# Concentration: 365 nM
# Notes: natural RNA segment, single round, ends assumed
# Relative to: no-protein control
# Direction: higher = stronger binding
# Constant ends, left off below: GGGAGUUCUACAGUCCGACGAUC … UGGAAUUCUCGGGUGCCAA
# Residues (chain): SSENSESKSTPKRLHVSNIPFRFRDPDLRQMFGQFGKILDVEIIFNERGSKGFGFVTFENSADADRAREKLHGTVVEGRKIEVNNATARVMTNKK
Oligonucleotide,RBNS enrichment (R)
UACACGUACAAGCGCCUGUGCUAACGGAGCUGGGACUCGGGACUCCCCCGCCUGUCAGUCUGGCCCCCUGUGCUUUGCUCCCUGUGCUCAGUGGUCACUUUCCCGCUCCC,1.44
AUCAGAGAAGCAUAUUUCCCUUGUGUCUCUUAAUACUGUCAUCUUGAAACUCUCUCUAGGAAAAAUGCCCAAGUUGUCUUCUGUUUCUAUUGUGGGAUGUUUAAAAAUGG,0.814
GCCCUCAUUGCUGCUUAUCGUACCCCCCAUCACCUGCACAUGGGACAGACCGGGCUGGAGGGUGACCUUGGCUGUGUGCGUCCCAGCAAAAGAGCUCUGGCCCGCAUCUC,1.21
AGGACUGGCCCAGGGAGGAGGAAGCCAGCAGCACACCUGGGGAAUGGGGUCCCGGCCGGGAGGCUUGGCCUCUGGGCGACCUCGUCCUGUUUUUUUUGUUUGUUUGUUUG,0.955
AGGUACAAGAGCAGAGCAGAGGAGCAAGCAAGGACAGCUGGGUUGAGUCUGCAGGUCCAGUGUGGUUUAGGUCAGUCAGGGGCCAGCUGGCCUCUGACUGCAUUGCUUUA,0.485
GGCUGUGGCAGAUGCCAGCAGCUCUUACCAUCAGUCAGAGUCUUCAGGGUGUCAAGCUGUUUUCAUUUUUUAGGCAAAUAGAACAAAAGCCAUUUUGGUUCAUCCUGAUC,0.284
UAUUUAAUUUUUAAGAAGCCUAUUUUACUAGUGUUUUGUAUGAAGAAAAAUACUGCAGAAGUUAAACCUGUGAUGUGUUUUUUUGAGCUGUUUUGUUUUAAGGUAACUAC,0.689
CACACAACACUAAGUGCCUAGACUUUAAAUAGAUCUAGCAAUUGGAAAGUUAGUAAGCCUAAGUUUUUACAUAAUUGCAUUCCUACAUUCUUGUAAAAUUUAAAUAGCUA,0.508
CACCCAAGGCUUCUAGAAGGAGCUUCCUGCAAUGGAAGGAAGGAGAAGCUCUGAAGCCCAUGUAUGGCAUGGAUUGUGGAAGACUGGGCAACAUAUUUAAGAUUUCCAGC,0.658
AGGGAUGAUGCCUAGCAUUGGGGCAGCAUCUGCUCAGCACAUGGAAAGGGACCUGGUUCCAUCUCCCCUGGGCAGGAGUUGGUCCAGCCUCCUCCCAGACCCAGCUGGUG,0.307
AGACCUUAAUUCUUACUCACUGCUGUGGCUGGAGAGUAUAAGGAAUGCUUUUUCUUUUUUUCUUUCUUUCUUUCUUUUUUUUUUUUAAGACAGCAGUCUUUUUUUUUAAU,0.99
ACUUCCACUUUUUUUUUUUCAAGUAUCUCUCUAAUAACUAAAUGCCACUUAUUUGCAUUCUCCUUGUGGAUUUUUUGUCACCUAAGGAAAUGCAUUUGAUGAGUGCUGGA,1.9

# Study 4
# Target: ABI1, truncated, D143A, DHFR fusion (Arabidopsis thaliana)
# Technique: DHFR PCA, deep sequencing
# Matrix: yeast
# Notes: methotrexate growth selection, single substitutions
# Added: (+)-ABA 0.032 µM
# Relative to: wild-type fitted maximum
# Direction: higher = stronger binding
# Starting sequence: PYL1, truncated, DHFR fusion (Arabidopsis thaliana); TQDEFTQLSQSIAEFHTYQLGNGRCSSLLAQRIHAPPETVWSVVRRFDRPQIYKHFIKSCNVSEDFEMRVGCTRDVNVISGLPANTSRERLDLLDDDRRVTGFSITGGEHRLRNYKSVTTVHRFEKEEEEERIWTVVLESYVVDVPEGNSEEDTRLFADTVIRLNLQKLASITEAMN
Change,relative binding score
R88I,36.9%
L169V,-1.4%
L20E,31.7%
N61V,50.2%
I57H,-13.2%
S87Y,52.9%
I105M,6.26%
G148H,1.03%
G107I,-3.57%
R111T,6.93%
A35I,-6.44%
D65T,4.68%
L28V,45.6%
L8P,3.8%
S27G,51.1%

# Study 5
# Target: CCND2, cyclin fold, Cln2 fusion (human)
# Technique: yeast growth competition, sequencing
# Matrix: yeast
# Notes: strong parent motif
# Relative to: not given
# Direction: higher = stronger binding
# Starting sequence: INSM1 docking peptide (human); PKAIRKLHFEDEV; partner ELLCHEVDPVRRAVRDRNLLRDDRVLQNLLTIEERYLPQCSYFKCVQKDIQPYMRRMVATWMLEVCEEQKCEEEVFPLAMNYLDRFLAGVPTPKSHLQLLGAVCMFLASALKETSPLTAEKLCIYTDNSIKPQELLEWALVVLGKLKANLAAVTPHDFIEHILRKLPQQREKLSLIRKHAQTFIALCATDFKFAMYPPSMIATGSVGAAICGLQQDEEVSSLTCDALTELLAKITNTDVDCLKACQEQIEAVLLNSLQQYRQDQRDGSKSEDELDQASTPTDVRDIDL
Change,normalised enrichment score
PKAIRNLHFEDEV [K6N],1.17
PKAIRKSHFEDEV [L7S],0.12
PKAIRKLYFEDEV [H8Y],1.74
PKAIMKLHFEDEV [R5M],1.11
PTAIRKLHFEDEV [K2T],2.84
PKAIRALHFEDEV [K6A],1.77
PKAIVKLHFEDEV [R5V],0.52
PKAIRKLHFEPEV [D11P],1.56
PKAIRKFHFEDEV [L7F],0.174
PAAIRKLHFEDEV [K2A],1.41
PKAIRKLHFNDEV [E10N],1.74
PKAIRKLHFRDEV [E10R],0.853
PKAPRKLHFEDEV [I4P],0.479
PKAIRKLHFEDQV [E12Q],1.51
PKAIRKLHFEDLV [E12L],1.38
PKAIRKLHFEMEV [D11M],1.34
PKAISKLHFEDEV [R5S],0.472
PKAIRKLHFEHEV [D11H],1.36
PKAIRKLVFEDEV [H8V],3.56
PKAIRHLHFEDEV [K6H],1.25
PKACRKLHFEDEV [I4C],2.37
PKAIRKMHFEDEV [L7M],0.546
PKAIRKNHFEDEV [L7N],-0.12
PKAMRKLHFEDEV [I4M],1.46
PKAIRKLRFEDEV [H8R],1.67

# Study 6
# Target: CREM, bZIP domain (human)
# Technique: DHFR protein complementation
# Matrix: yeast
# Notes: single substitutions, most at no-binding floor
# Relative to: wild-type JUN-FOS pair
# Direction: higher = stronger binding
# Starting sequence: JUN, bZIP domain (human); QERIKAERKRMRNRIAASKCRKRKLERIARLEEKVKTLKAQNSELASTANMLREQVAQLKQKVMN; partner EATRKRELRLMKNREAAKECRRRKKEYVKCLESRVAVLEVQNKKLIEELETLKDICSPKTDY
Change,binding fitness
A29L,-1.44 natural log
E33T,-1.47 natural log
V35W,-1.47 natural log
A40M,-1.34 natural log
S43W,-1.46 natural log
E33P,-1.49 natural log
T37E,-1.44 natural log
T48K,-1.38 natural log
N42W,-1.48 natural log
L31A,-1.52 natural log
E33A,-1.43 natural log
E44S,-1.45 natural log
V56L,-1.49 natural log
L38T,-1.51 natural log
K36R,-1.35 natural log
L38D,-1.52 natural log
K34E,-1.43 natural log
L31T,-1.5 natural log

# Other studies, line by line
Molecule,target,test,system,conditions,how to read,endpoint,result
"PhoQ, residues 284 288 289 292 302 303 SLCLSL","PhoP, residues 12 14 15 18 19 GHCSL (Escherichia coli, UniProt P23836)","Sort-seq, refers to: YFP reporter",E. coli,"PhoQ-PhoP variant library, added: 10 µM Mg2+","relative to: high Mg2+ state, higher = stronger signaling",fold induction,2.34

# A few entries again (study 1):
Change,fold enrichment
F4V,11.2 fold
Y9M,1.57 fold
Y5H,1.04 fold
P6Y,3.78 fold
Q12W,6.05 fold
T1W,19.7 fold
K15N,7.59 fold
F14Q,20.1 fold
F4D,4.72 fold
Y9W,0.641 fold
T1R,15.9 fold
K15M,7.81 fold
Y5K,1.99 fold
P3V,20 fold
